Results pooled from the literature.
Each numbered part is a random draw from the data of one study; scales do not carry over between parts. Substitutions count along the parent as printed.

Series 1 — method: universal PBM; form: double-stranded DNA, one strand shown; sample: in vitro; tested at: 600 nM; direction: higher = stronger binding; quantity: E-score
Target: Sal-like protein 4, full length isoform A (SALL4, Homo sapiens, UniProt Q9UJQ4, residues 1-1053)
Sequence of UniProt Q9UJQ4 (whole entry, looked up): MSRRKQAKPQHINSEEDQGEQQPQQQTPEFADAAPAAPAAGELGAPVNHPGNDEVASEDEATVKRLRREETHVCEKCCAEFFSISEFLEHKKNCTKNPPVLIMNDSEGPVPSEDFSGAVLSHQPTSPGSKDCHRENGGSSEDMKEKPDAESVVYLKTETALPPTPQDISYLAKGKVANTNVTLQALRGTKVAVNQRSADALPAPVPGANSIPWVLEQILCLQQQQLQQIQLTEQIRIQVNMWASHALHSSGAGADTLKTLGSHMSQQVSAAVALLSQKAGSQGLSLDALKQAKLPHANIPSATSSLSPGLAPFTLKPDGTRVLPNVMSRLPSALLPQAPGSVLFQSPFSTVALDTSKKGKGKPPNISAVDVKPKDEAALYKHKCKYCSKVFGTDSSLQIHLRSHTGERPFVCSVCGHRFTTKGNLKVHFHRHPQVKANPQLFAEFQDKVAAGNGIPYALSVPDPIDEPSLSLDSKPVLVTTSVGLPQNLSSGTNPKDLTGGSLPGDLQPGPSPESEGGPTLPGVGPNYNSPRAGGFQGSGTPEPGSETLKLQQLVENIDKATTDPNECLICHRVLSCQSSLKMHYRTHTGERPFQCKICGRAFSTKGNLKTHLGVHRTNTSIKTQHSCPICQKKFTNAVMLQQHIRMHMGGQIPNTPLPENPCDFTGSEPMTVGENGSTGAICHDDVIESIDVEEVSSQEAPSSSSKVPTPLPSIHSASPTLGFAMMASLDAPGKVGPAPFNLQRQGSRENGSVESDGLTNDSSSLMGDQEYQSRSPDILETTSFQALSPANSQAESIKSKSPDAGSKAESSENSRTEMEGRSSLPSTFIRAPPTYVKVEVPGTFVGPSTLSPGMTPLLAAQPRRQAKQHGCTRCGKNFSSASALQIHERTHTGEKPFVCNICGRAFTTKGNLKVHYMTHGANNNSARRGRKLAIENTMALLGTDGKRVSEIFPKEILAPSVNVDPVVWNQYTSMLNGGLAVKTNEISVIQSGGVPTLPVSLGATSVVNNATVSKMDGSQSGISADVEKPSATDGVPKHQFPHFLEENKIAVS
Setting: 8-mer, flanks averaged, mean of replicates
Sequence = CCTAGTTA; result = 0.00675
Sequence = CGACAACG; result = -0.101
Sequence = AGAGGTGC; result = -0.245
Sequence = CTTCGACA; result = -0.0321
Sequence = ACACGCCG; result = -0.197
Sequence = CAGGAGAG; result = -0.0626
Sequence = CGTCTACC; result = -0.0998
Sequence = AACCATGC; result = 0.0102

Series 2 — method: RNA Bind-n-Seq; form: RNA; sample: in vitro; tested at: 365 nM; baseline: no-protein control; direction: higher = stronger binding; quantity: RBNS enrichment (R)
Target: RNA binding protein fox-1 homolog 2, RRM domain, GST-SBP tag (RBFOX2, Homo sapiens, UniProt O43251-10, residues 100-194)
Setting: natural RNA segment, single round, ends assumed
Constant ends, left off below: GGGAGUUCUACAGUCCGACGAUC … UGGAAUUCUCGGGUGCCAA
Residues (chain): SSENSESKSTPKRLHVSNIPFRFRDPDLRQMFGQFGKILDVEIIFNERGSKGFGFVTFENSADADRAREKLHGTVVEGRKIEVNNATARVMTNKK
Sequence = CAUUUCCCAGGUUAUGCUCUUUUCUUUCUCAGGGUCCUCUUUGGUGGGCAGCCACUCCCCGAGAUGUUGCCAUCAGUUUUCUGCAGUCCAAAGAGGGUAUGGUUAGGUAC; result = 0.447
Sequence = CACUAGAAUAAAUUUGCAAGGCCCUAAAAUAUCACUGUUAUUUUUGGAGUAAUUCAGUAUAGGUUCGUUUAAAAGAGAUUUUUAUAACUUCAGACAUGCAUCAGUAGGAA; result = 3.2
Sequence = AUAGUAAUACACAUCUGCCUUUGUCUCUUCACUCAGAGUCAACUGAAAAAUUGCAGGCCAAAACCUUGGAGAACUUUCCAAGUCUGUGACUCCCAGAUUACCCGUGGGCG; result = 0.383
Sequence = UCUAUUGUAUUGUCUCACACAUGCUCUAUAUAAAUGGGAAAUGUUGAUUUUUUUGAUGAUAGACUAUAUACACAGGCUGUUCCCGUUAUGUAAGUCAGUUCUUCAGGCUC; result = 0.334
Sequence = UUGUGUUUUGGCAGCAUUUUAAGGCAUGGUGGUCCCUCAGGCUUUGAAAACGCCUCUUGCCUAUGUUAGUUACCCAUUCUCAACACUGGGCCAUGGCUGCAGAUGGAAUU; result = 0.481
Sequence = AAUGAAAUAACUGCAACUAGAGAAAAAAAACUGUAUAAAAACAUUAAAUUGUCAGUAUUUUUGUAAGAUUCCGUUUUGUAAAGAGAAUAAUAUUCAAACACUUUUGUGGC; result = 0.618
Sequence = UUGGACUCACUCUCUGUUCCACAAACAUAGAUGUAACCCUCUACCUCUCCUUACCCAACUUAUUACCACCAUACUGUGAUGUUUUGGGUUGUACAUUUUGUUUAAUAAAA; result = 0.521
Sequence = UACCACCUCACCUUGUUGGUACCUCCCUCCCUGGAUCUCUGAGCCAGCAGCCAGGAGGACCUGACCCAGCAGUUCUUUACUGGCCCCUUUGUAGGGCCUUGCUGCCAGGG; result = 0.368

Other studies, line by line — P1: viral docking peptide; KKAKRRLFTISDS
Substance = PhoQ, residues 284 288 289 292 302 303 NLGVHL; target = PhoP, residues 12 14 15 18 19 LQHIR (Escherichia coli, UniProt P23836); assay = Sort-seq, item: YFP reporter; test system = E. coli; setting = PhoQ-PhoP variant library, together with: 10 µM Mg2+; scale = baseline: high Mg2+ state, higher = stronger signaling; quantity = fold induction; result = 7.63
Substance = P1 L7A; target = CCNB1, cyclin fold, Cln2 fusion (human); assay = yeast growth competition, sequencing; test system = yeast; setting = weak parent motif; scale = baseline: not given, higher = stronger binding; quantity = normalised enrichment score; result = 0.286

Excerpt of the above (series 2):
Sequence = AAUGAAAUAACUGCAACUAGAGAAAAAAAACUGUAUAAAAACAUUAAAUUGUCAGUAUUUUUGUAAGAUUCCGUUUUGUAAAGAGAAUAAUAUUCAAACACUUUUGUGGC; result = 0.618
Sequence = UUGGACUCACUCUCUGUUCCACAAACAUAGAUGUAACCCUCUACCUCUCCUUACCCAACUUAUUACCACCAUACUGUGAUGUUUUGGGUUGUACAUUUUGUUUAAUAAAA; result = 0.521
